Measurements collected from several papers.
Each line is one published result; not all experiments were run side by side. ± marks the error that the study gave.
Cell line: MCF7

SMILES | test | setting | scale | quantity | result
CC[C@@H]([C@H](C)c1ccc(O)cc1)[C@H](CC)c1ccc(O)cc1 | cell growth or viability, ATP luminescence | 5 days | – | EC50 | 0.018 µM
CC(C)C[C@@H](NC(=O)[C@H](C)NC(=O)CNC(=O)[C@@H](NC=O)C(C)C)C(=O)N[C@@H](C)C(=O)N[C@@H](C(=O)N[C@H](C(=O)N[C@@H](C(=O)N[C@@H](Cc1c[nH]c2ccccc12)C(=O)N[C@H](CC(C)C)C(=O)N[C@@H](Cc1c[nH]c2ccccc12)C(=O)N[C@H](CC(C)C)C(=O)N[C@@H](Cc1c[nH]c2ccccc12)C(=O)N[C@H](CC(C)C)C(=O)N[C@@H](Cc1c[nH]c2ccccc12)C(=O)NCCO)C(C)C)C(C)C)C(C)C | flow cytometry | 100 nM, 48 h | – | cells in G2/M phase | 26.1 ± 1.64%
CCC(=CCc1c(O)cc2c(c1O)C(=O)CC(c1ccc(OC)c(O)c1)O2)CC (stereo not shown) | cytotoxicity, MTT | 25.1 µM, 48 h | – | growth inhibition | 68.9%
CSC(=S)N/N=C(\C)c1ccc(S(=O)(=O)N2CCC(C)CC2)cc1 | flow cytometry | 4.29 µM (IC50), 72 h | – | cells in pre-G1 phase | 15.5%
CCC(=CCc1c(O)cc2c(c1O)C(=O)CC(c1cccc(O)c1)O2)CC (stereo not shown) | cytotoxicity, MTT | 27.14 µM, 48 h | – | growth inhibition | 44.9%
CSC(=NN=C(C)c1ccc(S(=O)(=O)N2CCC(C)CC2)cc1)N(C)C | annexin V/PI | concentration not given, 72 h, at IC50 | – | necrotic cells | 1.54%
Oc1cccc(-c2cccc(O)n2)n1.[Cl-].[Cl-].[Ru+2].c1ccc(-c2ccnc3c2ccc2c(-c4ccccc4)ccnc23)cc1.c1ccc(-c2ccnc3c2ccc2c(-c4ccccc4)ccnc23)cc1 | cell growth or viability | dark | – | EC50 | 18 µM
CC(=NN=c1sc(C(=O)c2ccccc2)nn1-c1ccccc1)c1ccc(S(=O)(=O)N2CCC(C)CC2)cc1 | flow cytometry | 4.29 µM (IC50), 72 h | – | cells in G0/G1 phase | 35.3%
CCC(=CCc1c(O)cc2c(c1O)C(=O)CC(c1ccccc1O)O2)CC (stereo not shown) | cytotoxicity, MTT | 1.696 µM, 48 h | – | growth inhibition | -6.2%
COC(=O)c1cc(NC2=NC(=O)C(=Cc3ccc(N(C)C)cc3)S2)ccc1OC(C)=O | GC-MS, item: Adenosine | 1 µM | baseline: DMSO | metabolite level | -1.02 fold change

Some of these lines once more:
SMILES | test | setting | scale | quantity | result
CC[C@@H]([C@H](C)c1ccc(O)cc1)[C@H](CC)c1ccc(O)cc1 | cell growth or viability, ATP luminescence | 5 days | – | EC50 | 0.018 µM
